Experimental data collected from several papers.
Each numbered part is a random draw from the data of one study; scales do not carry over between parts. Substitutions count along the parent as printed.

Set 1 — target: CCNE1, cyclin fold, Cln2 fusion (human); method: yeast growth competition, sequencing; medium: yeast; notes: strong parent motif; relative to: not given; reading: higher = stronger binding; quantity: normalised enrichment score
Starting sequence: RBL1 docking peptide (human); GSAKRRLFGEDPP; partner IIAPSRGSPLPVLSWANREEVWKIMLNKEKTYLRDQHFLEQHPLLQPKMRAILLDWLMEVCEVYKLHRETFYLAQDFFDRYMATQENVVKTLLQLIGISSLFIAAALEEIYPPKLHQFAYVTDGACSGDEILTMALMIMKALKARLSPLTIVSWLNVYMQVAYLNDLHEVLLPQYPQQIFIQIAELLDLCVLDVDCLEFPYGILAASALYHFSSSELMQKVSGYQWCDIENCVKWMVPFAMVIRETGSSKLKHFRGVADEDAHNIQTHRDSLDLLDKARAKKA
GSAKRDLFGEDPP [R6D]: -0.0277
GSAKRRLFGMDPP [E10M]: 4.69
GSAKRRRFGEDPP [L7R]: 0.0891
GSAKRRLNGEDPP [F8N]: -0.412
GWAKRRLFGEDPP [S2W]: 3.39
GSAKRRLYGEDPP [F8Y]: 0.879
GSAKRRLKGEDPP [F8K]: 0.824

Set 2 — method: DHFR PCA, deep sequencing; medium: yeast; together with: (+)-ABA 0 µM; relative to: wild-type fitted maximum; reading: higher = stronger binding; quantity: relative binding score
Target: ABI1, truncated, D143A, DHFR fusion (Arabidopsis thaliana)
Notes: methotrexate growth selection, single substitutions
Starting sequence: PYL1, truncated, DHFR fusion (Arabidopsis thaliana); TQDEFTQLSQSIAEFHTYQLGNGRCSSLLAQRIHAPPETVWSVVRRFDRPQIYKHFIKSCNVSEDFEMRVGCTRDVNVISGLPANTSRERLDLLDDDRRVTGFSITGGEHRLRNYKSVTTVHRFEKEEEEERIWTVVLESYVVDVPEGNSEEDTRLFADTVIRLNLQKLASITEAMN
E125Q: 40.5%
S80F: 57.7%
I57R: 2.33%
E14R: 5.34%
V143A: 6.57%
F66M: 3.59%
E129R: 14.6%

Set 3 — method: RNAcompete; form: RNA; medium: in vitro; concentration: 20 nM; notes: 7-mer, probes averaged, single round; relative to: mean of 7-mers; reading: higher = stronger binding; quantity: 7-mer Z-score
Target: PABPC1L2, full length, GST fusion (mouse, UniProt A0ABA7IW68)
Residues (chain): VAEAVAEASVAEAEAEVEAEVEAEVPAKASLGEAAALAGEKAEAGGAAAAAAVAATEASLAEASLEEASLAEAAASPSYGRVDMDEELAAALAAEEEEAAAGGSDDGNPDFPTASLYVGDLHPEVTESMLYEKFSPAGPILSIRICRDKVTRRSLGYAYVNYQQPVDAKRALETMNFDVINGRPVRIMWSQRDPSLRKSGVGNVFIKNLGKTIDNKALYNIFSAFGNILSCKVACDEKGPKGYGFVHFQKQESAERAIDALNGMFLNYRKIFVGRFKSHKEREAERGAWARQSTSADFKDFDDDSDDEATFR
CCCGCCC: -0.57
CUACUAA: -0.126
CUCUGGU: -0.34
AUUUCUG: -0.371
GACGAAG: 0.0569
CAUGCGA: -0.0464
UCUUUCG: -0.389

Single results of other studies
PhoQ, residues 284 288 289 292 302 303 TLSLKA  fold induction (PhoP, residues 12 14 15 18 19 IFFTR (Escherichia coli, UniProt P23836); Sort-seq, item: YFP reporter; E. coli; PhoQ-PhoP variant library, together with: 10 µM Mg2+; relative to: high Mg2+ state, higher = stronger signaling): 1.14

Repeated from above (set 3):
AUUUCUG: -0.371
CUACUAA: -0.126
